Measured values from different studies.
Numbers after ± are the reported error.
Cell line: A549

`O=C(Cn1cc(COc2ccccc2-c2nc(Cc3ccccc3)no2)nn1)NNC(=S)Nc1ccccc1` has a mRNA level of 0.36 ± 0.005 fold (qPCR, measured: PI3K; IC50, 24 h; relative to: untreated cancer cells).
The IC50 of `Cc1ccc(C(=O)C2C(c3c(C)cc(C)cc3C)CN(C)C23C(=O)Nc2ccccc23)cc1` (centres unmarked) is reported as < 10 µM (cell growth or viability, MTT).
The adherent cells of `VCTGSC` is reported as 8% (peptide; 2 µg coated per well, 30 to 60 min; relative to: thrombospondin-coated wells).
For `Cc1cc(-c2ccccc2)c2ccc3c(-c4ccccc4)cc(C)nc3c2n1`, the cellular accumulation was 400 to 600 fold (3 µM; relative to: intracellular over initial extracellular).
The cell migration of `COCCNc1nc2ccc(C#CC3(O)CCCCC3)cc2n1-c1ccnc(N)n1` is reported as 62% (wound-healing; 5 µM).
The mRNA level of `NC(=O)Cn1cc(COc2ccccc2-c2nc(Cc3ccccc3)no2)nn1` is reported as 0.24 ± 0.03 fold (qPCR, measured: PI3K; IC50, 24 h; relative to: untreated cancer cells).
For `Cn1c(=O)n(-c2ccc(C(C)(C)C#N)cc2)c2c3cc(-c4cnc5ccccc5c4)ccc3ncc21`, the EC50 was 0.025 to 0.19 µM (SQ/TQ site phosphorylation, phosphoproteomics).
For `NC(=O)Cn1cc(COc2ccccc2-c2nc(-c3ccccc3)no2)nn1`, the mRNA level was 6.5 ± 0.05 fold (qPCR, measured: TP53; concentration not given, 24 h; relative to: untreated).
`CC(=O)Oc1ccc(/C=C\C(=O)Nc2ccc(S(N)(=O)=O)cc2)cc1OC(C)=O` gave a protective concentration of ≤ 50 µM (cell viability, MTT; 24 h pretreatment, added: H2O2 800 µM for 4 h).
For `COc1cc(/C=C/C(=O)/C=C/c2cc(OC)c(OC)c(OC)c2)cc(OC)c1OC`, the GI50 was 0.53 µM (cell growth or viability, SRB; 48 h).
`NS(=O)(=O)c1ccc(NC(=O)/C=C\c2ccc(O)c(O)c2)cc1` has a protective concentration of ≤ 200 µM (cell viability, MTT; 24 h pretreatment, added: H2O2 800 µM for 4 h).
`Cc1cc(C)c(C2CN(C)C3(C(=O)Nc4ccccc43)C2C(=O)c2ccccc2)c(C)c1` (centres unmarked) has an IC50 of 3.81 µM (cell growth or viability, MTT; 48 h).
The adherent cells of `ANKHYF` is reported as 10% (peptide; 2 µg coated per well, 30 to 60 min; relative to: thrombospondin-coated wells).
Under “cell surface pH”, `Nc1ncnc2c1nc(Sc1ccc(Cl)cc1)n2[C@@H]1O[C@@H]2COP(=O)(O)O[C@H]2[C@H]1O` is recorded as 6.55 (fluorescein-WGA ratio imaging; concentration not given, 37 °C, medium pH 7.4).
The adherent cells of `CSTSCR` is reported as 104% (peptide; 2 µg coated per well, 30 to 60 min; relative to: thrombospondin-coated wells).
For `CC(=NN=C(N)[S-])C(C)=NN=C(N)[S-].O=[N+]([O-])[O-].[Co+3].c1c[nH]cn1.c1c[nH]cn1`, the IC50 was > 500 µM (cell viability, MTT; 24 h hypoxic, 48 h normoxic, hypoxic treatment).
With `Nc1nccc(-n2cc(C(=O)N3CCNC(=O)C3)c3ccc(C#CC4(O)CCCCC4)cc32)n1` the cell migration was 73% (wound-healing; 5 µM).
The mRNA level of `NNC(=O)Cn1cc(COc2ccccc2-c2nc(-c3ccccc3)no2)nn1` is reported as 0.26 ± 0.03 fold (qPCR, measured: EGFR; IC50, 24 h; relative to: untreated cancer cells).
With `Nc1nccc(-n2cc(C(=O)N3CC[C@H](N)C3)c3ccc(C#CC4(O)CCCCC4)cc32)n1` the cell migration was 63% (wound-healing; 5 µM).
The IC50 of `Cc1cc(C)c(C2C3CCCN3C3(C(=O)Nc4ccccc43)C2C(=O)c2cccc(Cl)c2)c(C)c1` (centres unmarked) is reported as < 10 µM (cell growth or viability, MTT).
`COc1cnc(NS(=O)(=O)c2ccc(NC(=O)/C=C\c3ccc(OC(C)=O)c(OC(C)=O)c3)cc2)nc1` gave a protective concentration of ≤ 100 µM (cell viability, MTT; 24 h pretreatment, added: H2O2 800 µM for 4 h).
`CC(C=NN=C(N)[S-])=NN=C(N)[S-].N.N.O=[N+]([O-])[O-].[Co+3]` has an IC50 of ~21.8 µM (cell viability, MTT; 24 h hypoxic, 48 h normoxic, hypoxic treatment).
For `Cc1cc(C)c(C2C3CCCN3C3(C(=O)Nc4ccccc43)C2C(=O)c2ccccc2)c(C)c1` (centres unmarked), the IC50 was 10.8 µM (cell growth or viability, MTT; 48 h).
`Nc1nccc(-n2cc(C(=O)N3CCC[C@@H](N)C3)c3ccc(C#CC4(O)CCCCC4)cc32)n1` gave a cell migration of 57% (wound-healing; 5 µM).
`Cc1cc(C)c(C2CN(C)C3(C(=O)Nc4ccccc43)C2C(=O)c2cccc(Cl)c2)c(C)c1` (centres unmarked) gave an IC50 of > 100 µM (cell growth or viability, MTT; 24 h).
`Nc1nccc(-n2cc(C(=O)N[C@@H]3CCNC3)c3ccc(C#CC4(O)CCCCC4)cc32)n1` has a cell migration of 63% (wound-healing; 5 µM).
With `O=[N+]([O-])c1ccc2nc(/C=C/c3ccc4ccccc4c3)c(/C=C/c3ccc4ccccc4c3)nc2c1` the IC50 was > 100 µM (cell growth or viability, MTT; 72 h).
`COc1cccc2c1C(=O)c1c(O)c3c(c(O)c1C2=O)C[C@@](O)(C(=O)CO)C[C@@H]3O[C@H]1C[C@H](N)[C@H](O)[C@H](C)O1` gave a mRNA level of 0.16 ± 0.02 fold (qPCR, measured: EGFR; IC50, 24 h; relative to: untreated cancer cells).
For `Nc1nccc(-n2cc(C(=O)N3CCC[C@@H](O)C3)c3ccc(C#CC4(O)CCCCC4)cc32)n1`, the cell migration was 54% (wound-healing; 5 µM).
